Published values gathered from unrelated publications.
Numbered parts are unrelated; each lists some results of a single study. Positions count from the first letter of the parent shown.

Study 1
Target: CCNA1, cyclin fold, Cln2 fusion (human)
Method: yeast growth competition, sequencing
Medium: yeast
Notes: strong parent motif
Relative to: not given
Direction: higher = stronger binding
Quantity: normalised enrichment score
Starting sequence: RBL2 docking peptide (human); STTRRRLFVENDS
Substitution = L7V; result = 0.212
Substitution = S1W; result = 0.0198
Substitution = T3A; result = 0.495
Substitution = T2G; result = 0.822
Substitution = E10W; result = 0.348
Substitution = N11T; result = 0.556
Substitution = E10C; result = 0.386
Substitution = R6T; result = 0.212
Substitution = N11I; result = 0.233
Substitution = F8R; result = 0.273
Substitution = S13M; result = 0.609
Substitution = E10A; result = 0.215
Substitution = E10N; result = 0.668
Substitution = L7I; result = 0.62
Substitution = R4G; result = -0.00946
Substitution = N11R; result = 0.724
Substitution = R4Y; result = 0.387

Study 2
Target: RNA binding protein fox-1 homolog 2, RRM domain, GST-SBP tag (RBFOX2, Homo sapiens, UniProt O43251-10, residues 100-194)
Method: RNA Bind-n-Seq
Molecule type: RNA
Medium: in vitro
Tested at: 365 nM
Notes: natural RNA segment, single round, ends assumed
Relative to: no-protein control
Direction: higher = stronger binding
Quantity: RBNS enrichment (R)
Shared flanks, not repeated: GGGAGUUCUACAGUCCGACGAUC … UGGAAUUCUCGGGUGCCAA
Residues (chain): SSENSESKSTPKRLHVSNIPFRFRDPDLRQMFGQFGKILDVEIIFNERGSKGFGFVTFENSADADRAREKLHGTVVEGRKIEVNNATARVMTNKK
Oligonucleotide = GAUUAUGGAUCAGUUCUGACAUUAAAAUCAUAGUUAAUUGAUGGAUGGUUUUUAUAGUUUGUUGAUAAAGUGGACACAGUAUUGUCUGAGCAGUUAUAUUUUAAUGCAUU; result = 0.656
Oligonucleotide = AAAGUCUGGACUCAGCCACAAACUACUACAGCCUGUCCACCUGAAAUCUUGACUUACCCAGUCCCCACCUGUCUCUUCCUGCCUUCUUUAUCUGUAAGAACACAAAUUUG; result = 0.381
Oligonucleotide = CAGAACACAGGGAGAUGAUGUGGCGUGGAUGUGGGCAGCUGGGGCUCCAUUGGCUAAGAUAGAACACUUAAAAACACUUUUCUCCCCCUUGUUGGGAGUGCUUUAUUUUU; result = 0.678
Oligonucleotide = UUAUGGACUCUGAAGACACUUCAAAACAUUAAAAGUCCUUAUGUCUUUGGUAAUGAAACAAUAACACUCAAUGAAGGAUGUAUUAAAAUUUUUGACUUAAUUUUGAAAUC; result = 0.434
Oligonucleotide = GCAGUUGGGUCAGAGCAUGACCUUUAAGAUAGCCUCUCUCAGCUAACAUAUUUAUGAAGAUGAGGCCUGGUGACCCAGCAGGUUCAUUGGAUACAUAAGAAAUGAGAAUU; result = 6.81
Oligonucleotide = GGGGGCGGGGAAAUUCAUAUCCCCUGUUCGUCUCAUGCGCGUCCUCCGUCCCCAAUCUAAAAAGCAAUUGAAAAGGUCUAUGCAAUAAAGGCAGUCGCUUCAUUCCUCUC; result = 0.601
Oligonucleotide = GAGCCCAGCUUCCCCCAUGUACAACAGGCACUUCCUAAACUCGGUUAUGAGGCUUUCAAUCGUGGAAGCUCAGGAGGGAAUGGUCCUGAUAGUGACAUCUGGGACCCCAG; result = 0.386
Oligonucleotide = UUAUUUGUACUAAGAAGUAACUUGACCCAAAACACCUUUUAUGUUUGCUUAGGGUAUAUUUUUUCAGUGUCUGAAAGUCAAAGGUAUUCCUGUCACAACUGUAAACAAAC; result = 0.417
Oligonucleotide = ACAUACUCAAGUGCACACCACAGCCCGAGGUGGAGACCUGGGCCACACCCUUCCCCUCCUGACAUCUUUAGUUUGGAGCACACAGAGGAAAUAGAACCUAAACACAUGCC; result = 0.518
Oligonucleotide = UUGCUGAUCCCUGGCUUGGAGCUCCUUGGGGGCCGGCAGGCCUCGACCCCCACCCUAGGGAAUGCAGAGCCUCUCCGCAUGUGUGCGCGUGGCCGUGUCUGUGUAUUUCU; result = 0.513
Oligonucleotide = GUCCCGGGCUGCUUUGUAGUGAGCCUGUUUCCACUGCUCUGGUAGCUGAGCCAGGCUAUGAGGAAACCCUGGAUAUCAGCAUAAACCUAUGUCUGGGACUACGAUCCCUU; result = 0.545
Oligonucleotide = GUACUGGACUACCACAGGUUUUUAGGAACUAAGGUGUUUCUCAUAAACACAAAAUGUUGGGUGAAACUGGGAACAACUACUCAGAAGCUCAUUUAUUUGCUUAAAUGGAA; result = 0.317

Study 3
Target: Prothrombin, mature alpha-thrombin (F2, Homo sapiens, UniProt P00734)
Method: aptamer microarray, sandwich
Molecule type: DNA with 2'F-ANA
Medium: in vitro
Tested at: 200 nM
Notes: whole 15-mer aptamer, many near background
With: Cy3 exosite-II aptamer, 400 nM
Direction: higher = stronger binding
Quantity: mean fluorescence intensity
Oligonucleotide: GGTTGGTGTGGTTGG
Modification = 2'F-ANA at 1 2 5 6 7 8 12 13 14 15; result = 62.1 a.u.
Modification = 2'F-ANA at 1 3 4 6 7 11 13 15; result = 127 a.u.
Modification = 2'F-ANA at 2 4 7 8 9 11 13 14 15; result = 85.9 a.u.
Modification = 2'F-ANA at 1 5 8 9 10 14; result = 44.6 a.u.
Modification = 2'F-ANA at 2 4 6 7 8 10 11 14; result = 75.1 a.u.
Modification = 2'F-ANA at 1 2 3 5 6 8 9 12 13 14 15; result = 93.7 a.u.
Modification = 2'F-ANA at 1 2 8 9 10 15; result = 86.8 a.u.
Modification = 2'F-ANA at 2 3 5 7 9 13 14 15; result = 50.6 a.u.
Modification = 2'F-ANA at 3 4 5 6 7 10 15; result = 49.6 a.u.
Modification = 2'F-ANA at 2 5 7 8 9 10 11 13 14 15; result = 47.1 a.u.
Modification = 2'F-ANA at 1 2 8 9 10 11 14; result = 47.4 a.u.
Modification = 2'F-ANA at 1 2 3 4 6 8 10 12 15; result = 68.9 a.u.
Modification = 2'F-ANA at 2 4 5 6 8 10 11 13 14; result = 52.8 a.u.
Modification = 2'F-ANA at 1 2 5 6 7 8 9 13 14; result = 48.4 a.u.
Modification = 2'F-ANA at 1 2 4 6 8 11 12 14 15; result = 60.4 a.u.
Modification = 2'F-ANA at 1 5 6 7 8 9 13 14 15; result = 51.5 a.u.
Modification = 2'F-ANA at 5 6 7 9 14; result = 45.6 a.u.
Modification = 2'F-ANA at 3 4 8 10 11 12 13 15; result = 254 a.u.

Study 4
Target: Sal-like protein 4, full length isoform B (SALL4, Homo sapiens, UniProt Q9UJQ4-2, residues 1-616)
Method: universal PBM
Molecule type: double-stranded DNA, one strand shown
Medium: in vitro
Tested at: not given
Notes: 8-mer, flanks averaged, mean of replicates
Direction: higher = stronger binding
Quantity: E-score
Oligonucleotide = ACAACGGG; result = -0.0781
Oligonucleotide = GGTATCTA; result = 0.241
Oligonucleotide = ATCGGGGC; result = -0.199
Oligonucleotide = TAGAAACA; result = 0.164
Oligonucleotide = AGTCTCGC; result = -0.102
Oligonucleotide = AAGGTGTA; result = 0.0862
Oligonucleotide = GATCGACA; result = 0.00995
Oligonucleotide = AGTCTGCG; result = -0.255
Oligonucleotide = AAATGCGT; result = 0.206
Oligonucleotide = TACCTCTA; result = 0.165
Oligonucleotide = CCAAACCC; result = -0.0519
Oligonucleotide = CGGGCCGA; result = -0.425
Oligonucleotide = CTTTTAAC; result = 0.122
Oligonucleotide = AAGTCTCG; result = -0.231
Oligonucleotide = ATGCCGCA; result = -0.0707
Oligonucleotide = CGAAAGGC; result = -0.103
Oligonucleotide = TCTTATAA; result = 0.28
Oligonucleotide = CGCAGGGA; result = -0.181
Oligonucleotide = GCAAAGCC; result = -0.311
Oligonucleotide = AAAGTGCA; result = 0.146
Oligonucleotide = GCCATCAC; result = -0.1
Oligonucleotide = CAAAAAGG; result = 0.0212
Oligonucleotide = AAAGGTCA; result = -0.0821
Oligonucleotide = CAAATGTG; result = 0.184
Oligonucleotide = ACTAGGCG; result = 0.0115

Study 5
Target: Ras GTPase-activating protein-binding protein 1, full length (G3BP1, Homo sapiens, UniProt Q13283)
Chain of UniProt Q13283 (whole entry, looked up): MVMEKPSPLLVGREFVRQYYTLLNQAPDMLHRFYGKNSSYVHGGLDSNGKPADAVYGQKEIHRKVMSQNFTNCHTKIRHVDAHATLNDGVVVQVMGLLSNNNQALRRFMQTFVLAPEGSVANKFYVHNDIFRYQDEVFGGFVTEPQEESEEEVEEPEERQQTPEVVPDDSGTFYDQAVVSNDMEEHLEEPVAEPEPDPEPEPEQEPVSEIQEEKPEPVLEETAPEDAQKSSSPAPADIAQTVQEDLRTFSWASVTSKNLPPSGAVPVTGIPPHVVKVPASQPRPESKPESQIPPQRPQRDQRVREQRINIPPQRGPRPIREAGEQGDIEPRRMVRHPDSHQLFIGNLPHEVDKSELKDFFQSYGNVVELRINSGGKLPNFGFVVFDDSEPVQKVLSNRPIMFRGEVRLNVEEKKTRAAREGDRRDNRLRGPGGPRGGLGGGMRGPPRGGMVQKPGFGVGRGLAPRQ
Method: RNA Bind-n-Seq
Molecule type: RNA
Medium: in vitro
Tested at: 200 nM
Notes: whole 134-nt RNA, ends assumed
With: 150 mM LiCl
Relative to: input library
Direction: higher = stronger binding
Quantity: log2 enrichment
Library: 7-deaza-guanosine replaces G
Shared flanks, not repeated: GGGAGUUCUACAGUCCGACGAUC … UGGAAUUCUCGGGUGUCAAGG
Oligonucleotide = UCCUGUGCUACACAUCGUAUGUACCGAAUCGGGGCCCCCGGGGCCCCCGGCCCCCGGGGAAAGUAUUAUGUUACGCCGUUCGGAUCUGCA; result = -0.685
Oligonucleotide = GUCCUGUGCUACACAUCGUAUGUACCGAAUCGGGGAAAAAGGGGAGGGGUUUUUGGGGAAAGUAUUAUGUUACGCCGUUCGGAUCUGCAC; result = 0.178
Oligonucleotide = UCAAGUCCUGUGCUACACAUCGUAUGUACCGAAUCGGAAAGGAAAGGGGAAAGGAAAGUAUUAUGUUACGCCGUUCGGAUCUGCACUUCC; result = -0.327
Oligonucleotide = CUGUGCUACACAUCGUAUGUACCGAAUCGGGGCCCCCCCGGCCCCCCCGGGCCCCCCCGGGGAAAGUAUUAUGUUACGCCGUUCGGAUCU; result = 0.645
Oligonucleotide = UCCUGUGCUACACAUCGUAUGUACCGAAUCGGGUUUUUUGGUUUUUUGGGUUUUUUGGGGAAAGUAUUAUGUUACGCCGUUCGGAUCUGC; result = -0.802
Oligonucleotide = UUUCAGGGCGCCCUGCGUCCGGCAGAGGAGGCGAGCAUCCCGCUCAGGUGAUGAGGAACCCCUCGCGCACCCAGCGCAGAAGGCUGCUGC; result = -2.12
Oligonucleotide = CAAGUCCUGUGCUACACAUCGUAUGUACCGAAUCGGGAAAAAGGGUUUGGGUGGGAAAGUAUUAUGUUACGCCGUUCGGAUCUGCACUUC; result = -0.54
Oligonucleotide = UGUUUUAAGGUUGCCAACUUUGCAACAAUGGAAGAUGAAGAAGAGCUAGAAGAGCGUCCUCACAAGGACUGGGAUGAGAUCAUUCCAGAG; result = -1.47
Oligonucleotide = UGGGAGGUGGAUUUUGUUUAUUUUUUUAGCUCAUUUCCAGGGGUGGGAAUUUUUUUUUAAUAUGUGUCAUGAAUAAAGUUGUUUGUGAAA; result = -0.25
Oligonucleotide = CCUGUGCUACACAUCGUAUGUACCGAAUCGGGUUUUUUUGGUUUUUUUGGGUUUUUUUGGGAAAGUAUUAUGUUACGCCGUUCGGAUCUG; result = -0.408
